Measurements from different studies.
Each line is one published result; not all experiments were run side by side. Several values in a cell are separate wells, animals, samples, runs or records. ± marks the error that the study gave.

Compound	test	test system	setting	scale	quantity	result
CCc1cccc(C)c1N(C(=O)CCl)C(C)COC (centres unmarked)	LC-MS/MS	herbicide solution	2 h, 23 °C, together with: 365 nm UV exposure	–	remaining amount	68 ± 6.27%
CC[C@H](C)[C@H](NC(=O)[C@H](CCCCN)NC(=O)[C@H](CCCCN)NC(=O)[C@H](CC(C)C)NC(=O)[C@@H](NC(=O)[C@H](CCCCN)NC(=O)[C@H](C)NC(=O)[C@H](C)NC(=O)[C@@H](NC(=O)CNC(=O)[C@H](C)NC(=O)[C@@H](NC(=O)[C@@H](NC(=O)[C@@H]1CCCN1C(=O)[C@H](Cc1ccccc1)NC(=O)[C@@H](N)Cc1ccccc1)[C@@H](C)CC)C(C)C)C(C)C)C(C)C)C(=O)N[C@@H](Cc1ccccc1)C(=O)N[C@H]1CSSC[C@@H](C(=O)O)NC(=O)[C@H](CCCCN)NC(=O)[C@H](CCCCN)NC(=O)[C@H](CO)NC(=O)[C@H]([C@@H](C)CC)NC(=O)[C@H]([C@@H](C)O)NC1=O	haemolysis	horse erythrocytes	2 h, 37 °C	–	HC50	37.6 µM
Cn1cc(Nc2nccc(-c3ccc4c(c3)CN(C3COC3)CC[C@H]4NC(=O)c3cn(C(C)(C)C)nn3)n2)cn1	–	healthy volunteers, whole blood	dose not given, 14 days, multiple ascending dose	reference: placebo	circulating leukocyte counts	no effect
Cl.Cl.NCCCn1c2c(c3ccc(N)cc3c1=O)C(=O)c1ccccc1-2	–	Sprague-Dawley rat, female, liver	oral, 40 mg/kg/day for 3 days, 3 h after last dose, mean	–	tissue concentration	4.28 µg/g
CC(C)C[C@@H](NC(=O)[C@@H](Cc1ccccc1)NC(=O)[C@H](N)Cc1ccccc1)C(=O)N[C@H](CCCCN)C(=O)N1CCC(N)(C(=O)O)CC1	measured: total radioactivity	healthy human subjects	intravenous, time not given	–	dose recovered in urine	80.5%
Oc1ccc2ccc3cccc4ccc1c2c34	HPLC-fluorescence	Wistar rat, male, stomach	oral, 4 mg/kg PY, 24 h	–	tissue concentration	0.871 ± 0.064 µg/g
COc1cc(C=CC(=O)C=Cc2cc(OC)c(OC)c(OC)c2)cc(OC)c1OC	fish embryo acute toxicity test	zebrafish (Danio rerio) embryos wild-type	immersion, up to 96 h, 0.1% DMSO	–	LC50	< 200000 nM
CC(=O)N[C@H](CCCCNC(=O)C(C)F)C(=O)N[C@@H](CS)C(=O)N[C@@H](CS)C(=O)N[C@@H](CCC(=O)O)C(=O)N[C@@H](Cc1c[nH]cn1)C(=O)N[C@H](Cc1ccccc1)C(=O)N[C@@H](CCCNC(=N)N)C(=O)N[C@@H](Cc1c[nH]c2ccccc12)C(=O)N[C@@H](CS)C(=O)N[C@@H](CCCNC(=N)N)C(=O)N1CCC[C@H]1C(=O)N[C@H](C(N)=O)C(C)C (some centres unmarked) [fluorine-18 labelled]	–	C57BL/6 mice, male, B16-F10 tumour, bone	intravenous, 4 h	–	tissue uptake	0.17 ± 0.09 %ID/g
O=c1[nH]c(=O)[nH]c(=O)[nH]1	LC-MS/MS	non-pregnant female rat, serum	oral, 1000 mg/kg/day, 10 days	–	serum concentration	54.1 µg/mL and 6 µg/mL and 25 µg/mL and 173 µg/mL and 30.5 µg/mL and 11.1 µg/mL
Cc1c(P(=S)(c2ccccc2)c2ccccc2)n2ccccc2[n+]1C/C=C/c1ccccc1	–	mouse, brain	intraperitoneal, 10 mg/kg, 4.98 min	–	concentration	14 ng/g
C#Cc1cccc2c1[nH]c1cnc(C(=O)OC(C)(C)C)cc12	–	Wistar rat, brain	intraperitoneal, 10 mg/kg single dose on day 4, 20 min after dose, vehicle for 3 days before, together with: diazepam 2 mg/kg	–	brain concentration	0.0648 ± 0.0156 µM
CN[C@@](C)(C[18F])C(=O)O	–	SCID mouse MDA-MB-468 xenograft, liver	120 min, post injection	–	tissue uptake	5 ± 0.9 %ID/g
CSCC[C@@H]1NC(=O)[C@H](CC(=O)O)NC(=O)CNC(=O)[C@H](CCCNC(=N)N)NC(=O)[C@H](C)NC(=O)[C@H](CCC(=O)O)NC(=O)[C@H](CCCNC(=N)N)NC(=O)[C@@H]2CSSC[C@@H]3NC(=O)[C@H](CO)NC(=O)[C@H]([C@@H](C)O)NC(=O)[C@@H]4CCCN4C(=O)[C@H](C)NC(=O)[C@H](Cc4c[nH]c5ccccc45)NC(=O)[C@H](CC(=O)O)NC(=O)CNC(=O)[C@H](CCCNC(=N)N)NC(=O)CNC(=O)[C@H](CCC(N)=O)NC(=O)[C@@H]4CCCN4C(=O)[C@@H](NC(=O)CNC(=O)C(C)F)CSSC[C@H](NC(=O)CNC(=O)[C@H](C)NC(=O)[C@H](CC(C)C)NC(=O)[C@H](CSSC[C@@H](C(=O)NCC(N)=O)NC(=O)[C@H]([C@@H](C)O)NC(=O)[C@H](CCCNC(=N)N)NC(=O)[C@@H]4CCCN4C1=O)NC(=O)[C@H](CC(=O)O)NC(=O)[C@H](CO)NC(=O)[C@H](CC(=O)O)NC(=O)[C@H](CCC(N)=O)NC(=O)[C@H](CO)NC3=O)C(=O)N[C@@H](C(C)C)C(=O)N2 (some centres unmarked) [fluorine-18 labelled]	–	nude mice U-87 MG xenograft, stomach	intravenous, 0.5 h	–	tissue uptake	1.81 ± 0.08 %ID/g
CC(C)N(CCCCOCC(=O)O)c1cnc(-c2ccccc2)c(-c2ccccc2)n1	–	human, PAH patients, plasma	oral, dose not given, together with: ERA plus PDE5 inhibitor comedication	reference: patients without comedication	exposure reduction	30%
CC(C)C[C@@H]1NC(=O)[C@@H]2CSSC[C@@H](C(=O)NCC(N)=O)NC(=O)[C@H](Cc3ccccc3)NC(=O)CNC(=O)[C@H](CC(N)=O)NC(=O)[C@@H]3CCCN3C(=O)CNC(=O)[C@@H]3CSSC[C@H](NC(=O)[C@H](CO)NC(=O)[C@H]([C@@H](C)O)NC(=O)[C@@H]4CCCN4C(=O)[C@H](C)NC(=O)[C@H](Cc4c[nH]c5ccccc45)NC(=O)[C@H](CC(=O)O)NC(=O)CNC(=O)[C@H](CCCNC(=N)N)NC(=O)CNC(=O)[C@H](CCC(N)=O)NC(=O)[C@@H]4CCCN4C(=O)[C@@H](NC(=O)CNC(=O)c4ccc(F)cc4)CSSC[C@H](NC(=O)CNC(=O)[C@H](C)NC1=O)C(=O)N[C@@H](C(C)C)C(=O)N3)C(=O)N[C@@H](CO)C(=O)N[C@@H](CCC(N)=O)C(=O)N[C@@H](CC(=O)O)C(=O)N[C@@H](CO)C(=O)N[C@@H](CC(=O)O)C(=O)N2 [fluorine-18 labelled]	biodistribution	nude mouse, U-87 MG xenograft, tumour	intravenous, 0.5 h, together with: unlabelled c(RGDyK) 330 µg co-injected	–	tumour uptake	0.57 ± 0.14 %ID/g
C=CC(=O)Nc1cc(Nc2nccc(-c3cn(C)c4ccccc34)n2)c(OC)cc1N(C)CCN(C)C	–	BALB/c nude mouse, female, EGFR exon insertion xenograft	12 days, once daily	–	maximum tolerated dose	20 mg/kg
C[C@H]1CO[C@@H]2Cn3cc(C(=O)NCc4ccc(F)cc4F)c(=O)c(O)c3C(=O)N12	–	Indian rhesus macaque, female, Depo-Provera-treated, plasma	intramuscular, 50 mg/kg, 10 weeks after first dose, at first viral RNA detection	–	plasma concentration	0.15 µg/mL
O=c1[nH]c(Cc2ccccn2)nc2c1cnn2C1CCOCC1	–	male human, plasma	oral, 0.5 mg, single dose	–	AUC(0-inf)	3.95 nM·h
COc1ccc(/C=C\c2cc(OC)c(OC)c(OC)c2)cc1O	mortality	zebrafish embryos, water with 0.1% DMSO	bath, 96 h	–	LC50	5 nM
O[C@H]1CCCN[C@@H]1CCCn1cnc2c(Cl)c(Cl)ccc21	–	human, plasma	oral, 100 mg single dose, solution, geometric mean	–	AUC(0-last)	0.275 µg·h/mL
COc1ccc(C[C@@H]2NC(=O)[C@H]([C@@H](C)O)NC(=O)[C@@H]3[C@@H]4CCN3C(=O)[C@@H]3Cc5cn(c6ccc(F)cc56)CCCCCCN(Cc5ccc(cc5)CCNC(=O)[C@]5(C)CCCN5C2=O)C(=O)CCC(=O)N[C@@H](C)C(=O)N[C@H](CNC(=O)CCCCC[N+](C)(C)C)C(=O)N[C@@H](Cc2cccc(c2)CNC(=O)CO4)C(=O)N3)cc1	–	fasted healthy humans, plasma	oral, 200 mg single dose, with 1800 mg Labrasol, median	–	Tmax	2.02 h
CCCCCOc1ccc(-c2cc(-c3ccc(C(=O)N[C@H]4C[C@@H](O)[C@@H](O)NC(=O)[C@@H]5[C@@H](O)[C@@H](C)CN5C(=O)[C@H]([C@H](O)CC(N)=O)NC(=O)[C@H]([C@H](O)[C@@H](O)c5ccc(O)c(OS(=O)(=O)O)c5)NC(=O)[C@@H]5C[C@@H](O)CN5C(=O)[C@H]([C@@H](C)O)NC4=O)cc3)no2)cc1	–	young infants, plasma	intravenous, 7 and 10 mg/kg/day pooled, day 4, mean, repeat dosing	–	Cmax	27.3 µg/mL
[123I]c1cncc(OC[C@@H]2CCN2)c1	SPECT	human, hippocampus	intravenous bolus, 9.1 mCi	reference: tissue over plasma	tissue/plasma ratio	16.6

Repeated from above:
Compound	test	test system	setting	scale	quantity	result
CC[C@H](C)[C@H](NC(=O)[C@H](CCCCN)NC(=O)[C@H](CCCCN)NC(=O)[C@H](CC(C)C)NC(=O)[C@@H](NC(=O)[C@H](CCCCN)NC(=O)[C@H](C)NC(=O)[C@H](C)NC(=O)[C@@H](NC(=O)CNC(=O)[C@H](C)NC(=O)[C@@H](NC(=O)[C@@H](NC(=O)[C@@H]1CCCN1C(=O)[C@H](Cc1ccccc1)NC(=O)[C@@H](N)Cc1ccccc1)[C@@H](C)CC)C(C)C)C(C)C)C(C)C)C(=O)N[C@@H](Cc1ccccc1)C(=O)N[C@H]1CSSC[C@@H](C(=O)O)NC(=O)[C@H](CCCCN)NC(=O)[C@H](CCCCN)NC(=O)[C@H](CO)NC(=O)[C@H]([C@@H](C)CC)NC(=O)[C@H]([C@@H](C)O)NC1=O	haemolysis	horse erythrocytes	2 h, 37 °C	–	HC50	37.6 µM
Cn1cc(Nc2nccc(-c3ccc4c(c3)CN(C3COC3)CC[C@H]4NC(=O)c3cn(C(C)(C)C)nn3)n2)cn1	–	healthy volunteers, whole blood	dose not given, 14 days, multiple ascending dose	reference: placebo	circulating leukocyte counts	no effect
Cl.Cl.NCCCn1c2c(c3ccc(N)cc3c1=O)C(=O)c1ccccc1-2	–	Sprague-Dawley rat, female, liver	oral, 40 mg/kg/day for 3 days, 3 h after last dose, mean	–	tissue concentration	4.28 µg/g
